Measurements gathered from unrelated publications.
Compare with care: the assays were run in different laboratories. ± gives the spread as reported.

SMILES	test	test system	setting	scale	quantity	result
CCCC(C)N1CCC(N(Cc2ccccc2)C(=O)Nc2cc(F)cc(C(F)(F)F)c2)CC1 (stereo not drawn)	–	CD-1 female mouse, liver microsomes	0.8 µM	–	intrinsic clearance	290 mL/min/kg
CC1(C)Oc2cc3oc(=O)ccc3cc2C[C@@H]1O	–	CD-1 mouse, male, testes	oral gavage, 80 mg/kg daily, 4 weeks	–	organ weight	0.27 ± 0.03 g
CCCC[C@@H]1NC(=O)[C@@H](NC(=O)[C@H](CCC(=O)O)NC(=O)CNC(=O)CN2CCN(CC(=O)O)CCN(CC(=O)O)CCN(CC(=O)O)CC2)CCCCNC(=O)C[C@@H](C(N)=O)NC(=O)[C@H](C(C)C)NC(=O)[C@@H]2CCCN2C(=O)[C@H](CCCNC(=N)N)NC(=O)CNC(=O)[C@H](Cc2c[nH]c3ccccc23)NC(=O)[C@H](CCCNC(=N)N)NC(=O)[C@@H](Cc2ccccc2)NC(=O)[C@H](Cc2c[nH]cn2)NC(=O)[C@H](CCC(=O)O)NC1=O [indium-111 labelled]	–	normal C57 mice, blood	intravenous, 0.037 MBq, 2 h	–	tissue uptake	0.01 ± 0.01 %ID/g
CCCOc1ccc([C@H]2CNC(=O)N2c2ccc3[nH]cnc3c2)cc1	–	human, plasma	oral, 800 mg, single dose, fasted, healthy volunteers	–	Tmax	0.0625 days
COc1ccc2c(c1OC)C(=O)O[C@@H]2[C@H]1c2c(cc3c(c2OC)OCO3)CCN1C	shake-flask	Captex 355	37 °C	–	thermodynamic solubility	3.37 ± 0.11 mg/g
N[C@@H](CC(=O)N1CCn2c(nnc2C(F)(F)F)C1)Cc1cc(F)c(F)cc1F	–	healthy Korean subjects, plasma	oral, 100 mg single dose, ABCB1 G2677T/A AA	–	AUC(0-2 h)	633 ng·h/mL
Cc1nc2cccc(OCC(C)(C)C(=O)NC(C)C)c2c(N)c1C(=O)O	–	Sprague-Dawley rat (both sexes), plasma	dietary, 30 mg/kg/day, day 7	–	Cmax	12.9 ng/mL
Cc1ncnc2c1c(Cl)cn2[C@@H]1O[C@H](CO)[C@@H](O)[C@H]1O	metabolic stability	mouse, liver microsomes	0 h	–	compound remaining	100%
O=C(/C=C\c1ccc(O)c(O)c1)Nc1ccc(S(=O)(=O)Nc2ncccn2)cc1	–	n-octanol/PBS	pH 7.4	–	log P	> 0.5
Cc1cc(Nc2ncc(Cl)c(Nc3ccccc3S(=O)(=O)C(C)C)n2)c(OC(C)C)cc1C1CCNCC1	measured: unbound drug	human, plasma	oral, 750 mg/day fasted, after daily dose 9	–	AUC(tau) at steady state	0.602 µM·h
Cc1cccc(Nc2ccccc2C(=O)O)c1C	shake-flask	polysorbate 80	37 °C	–	thermodynamic solubility	26.2 ± 0.65 mg/g
O=C(c1cccc(/N=N/c2cccc(OCCCN3CCCCC3)c2)c1)N1CCCC1	–	Tris-HCl buffer, 1% DMSO-d6	25 µM, pH 7.4, 20 ± 3 °C	–	cis isomer thermal half-life	114 days
CCCCCCCCC[C@H](O)CC(=O)CCc1ccc(O)c(OC)c1	–	rat, small intestine site 4 contents	oral, dose not given, 2 h, no β-glucuronidase treatment	baseline: ingested amount	recovery	1.51%
C[C@@H]1[C@H](c2c(F)ccc(F)c2F)C[C@H](NC(=O)c2cnc3c(c2)C[C@@]2(C3)C(=O)Nc3ncccc32)C(=O)N1CC(F)(F)F	LC-MS/MS	human, male, plasma	oral, 50 mg, single dose, 14C-labelled, AUC based	–	circulating parent share of plasma radioactivity	~75%
Cc1cc(-c2cc(OC(=O)c3ccccc3)ccc2Cl)cc2nnc(Nc3ccc(OCCN4CCCC4)cc3)nc12	–	Dutch Belted rabbit, retina	topical ocular, 40 µL drop of 0.6%, 2 h	–	tissue concentration	46 nM
OC[C@@H](O)[C@@H](O)[C@H](O)[C@H](O)CO	equilibrium dialysis	cellulose membrane, cell-free	pH 7.4, no Pluronic P85	–	effective permeability	133 ± 12 ×10⁻⁶ cm/s
CCC(C)n1ncn(-c2ccc(N3CCN(c4ccc(OCC5COC(Cn6cncn6)(c6ccc(Cl)cc6Cl)O5)cc4)CC3)cc2)c1=O (stereo not drawn)	shake-flask	Captex 355	37 °C	–	thermodynamic solubility	0.18 mg/g
O=C(CCCN1CC=C(n2c(=O)[nH]c3ccccc32)CC1)c1ccc(F)cc1	–	male Hartley guinea pig, anaesthetized	intravenous infusion, 0.3 mg/kg, 10 min infusion	baseline: baseline	QTc change	19.1 ± 4.8%

Excerpt of the above:
SMILES	test	test system	setting	scale	quantity	result
COc1ccc2c(c1OC)C(=O)O[C@@H]2[C@H]1c2c(cc3c(c2OC)OCO3)CCN1C	shake-flask	Captex 355	37 °C	–	thermodynamic solubility	3.37 ± 0.11 mg/g
CCCOc1ccc([C@H]2CNC(=O)N2c2ccc3[nH]cnc3c2)cc1	–	human, plasma	oral, 800 mg, single dose, fasted, healthy volunteers	–	Tmax	0.0625 days
